Literature values as cited in several papers.
Protocols differ between the studies behind these lines.
UniProt Q13523, sequence (whole entry, looked up): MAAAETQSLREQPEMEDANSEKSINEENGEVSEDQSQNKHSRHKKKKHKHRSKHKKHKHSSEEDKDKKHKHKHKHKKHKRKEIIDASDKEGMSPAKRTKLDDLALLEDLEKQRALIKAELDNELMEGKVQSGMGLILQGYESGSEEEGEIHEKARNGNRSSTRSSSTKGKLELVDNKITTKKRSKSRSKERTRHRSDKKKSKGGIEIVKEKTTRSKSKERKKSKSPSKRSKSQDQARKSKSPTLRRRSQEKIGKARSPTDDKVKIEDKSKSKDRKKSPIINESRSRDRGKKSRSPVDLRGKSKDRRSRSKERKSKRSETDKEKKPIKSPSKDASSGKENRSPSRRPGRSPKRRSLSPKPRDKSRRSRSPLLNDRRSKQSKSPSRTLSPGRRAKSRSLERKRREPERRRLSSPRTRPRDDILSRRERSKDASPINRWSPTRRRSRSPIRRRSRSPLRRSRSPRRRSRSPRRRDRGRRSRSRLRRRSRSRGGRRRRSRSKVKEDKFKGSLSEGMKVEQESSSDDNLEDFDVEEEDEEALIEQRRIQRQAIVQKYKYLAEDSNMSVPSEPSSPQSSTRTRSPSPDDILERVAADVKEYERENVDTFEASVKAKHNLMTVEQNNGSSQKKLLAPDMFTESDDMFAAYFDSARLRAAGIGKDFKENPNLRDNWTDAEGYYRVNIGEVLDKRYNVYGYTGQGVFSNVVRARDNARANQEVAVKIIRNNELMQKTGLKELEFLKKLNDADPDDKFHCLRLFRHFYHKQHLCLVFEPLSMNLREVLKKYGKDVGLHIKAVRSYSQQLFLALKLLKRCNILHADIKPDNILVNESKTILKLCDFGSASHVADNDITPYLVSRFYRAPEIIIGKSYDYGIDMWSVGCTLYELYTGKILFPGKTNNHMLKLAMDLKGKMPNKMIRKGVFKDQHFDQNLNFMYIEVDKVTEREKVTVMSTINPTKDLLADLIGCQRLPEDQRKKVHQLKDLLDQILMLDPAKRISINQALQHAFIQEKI

Structure (SMILES)	target or system	assay	test system	conditions	how to read	measurement	result
COc1ccc(CCN2CCC(Nc3nc4ccccc4n3Cc3ccc(F)cc3)CC2)cc1			plasma	concentration not given, total, steady state		Cmax	2 nM
CC(C)[C@H]1CC[C@H](C(=O)N[C@H](Cc2ccccc2)C(=O)O)CC1			plasma	concentration not given		Cmax	18000 nM
Cc1nn(C)cc1S(=O)(=O)NC(=O)c1ccc(-n2ccc(OCC(C)(C)C(F)(F)F)n2)nc1N1C[C@@H](C)CC1(C)C			non-pregnant cystic fibrosis patients, plasma	dose not given		Cmax	9200 ng/mL
CC(C)c1c(C(=O)Nc2ccccc2)c(-c2ccccc2)c(-c2ccc(F)cc2)n1CC[C@@H](O)C[C@@H](O)CC(=O)O			plasma	concentration not given, total, steady state		Cmax	30 nM
CCCN(CCC)CCc1cccc2c1CC(=O)N2			plasma	concentration not given, total concentration		Cmax	141 nM
C=C(CC)C(=O)c1ccc(OCC(=O)O)c(Cl)c1Cl			plasma	concentration not given		Cmax	30900 nM
CN(C)CCOC1=Cc2ccccc2Sc2ccc(Cl)cc21			plasma	concentration not given, total concentration		Cmax	93 nM
CO[C@H]1C[C@@H]2CC[C@@H](C)[C@@](O)(O2)C(=O)C(=O)N2CCCC[C@H]2C(=O)O[C@H]([C@H](C)C[C@@H]2CC[C@@H](OCCO)[C@H](OC)C2)CC(=O)[C@H](C)/C=C(\C)[C@@H](O)[C@@H](OC)C(=O)[C@H](C)C[C@H](C)/C=C/C=C/C=C/1C			plasma	concentration not given, total, steady state		Cmax	60 nM
C[C@H](NCc1ccc(OCc2ccccc2F)cc1)C(N)=O			plasma	concentration not given, total concentration		Cmax	3.1 nM
COc1cc(N)c(Cl)cc1C(=O)NC1CCN(CCCOc2ccc(F)cc2)CC1OC (stereo not drawn)			plasma	concentration not given, total, steady state		Cmax	90 nM
COc1cc(N2CCC(N3CCN(C)CC3)CC2)ccc1Nc1ncc(Cl)c(Nc2ccccc2P(C)(C)=O)n1			healthy subjects	90 mg, single dose alone, itraconazole study		Cmax	331 ng/mL
O=C(c1ccccc1)c1ccc2n1CCC2C(=O)O (stereo not drawn)			plasma	concentration not given		Cmax	9500 nM
Cn1c(=O)c2[nH]cnc2n(C)c1=O			plasma	concentration not given, total, literature data		Cmax	16400 nM
C=CC[C@@H]1/C=C(\C)C[C@H](C)C[C@H](OC)[C@H]2O[C@@](O)(C(=O)C(=O)N3CCCC[C@H]3C(=O)O[C@H](/C(C)=C/[C@@H]3CC[C@@H](O)[C@H](OC)C3)[C@H](C)[C@@H](O)CC1=O)[C@H](C)C[C@@H]2OC			plasma	concentration not given, total, steady state		Cmax	40 nM
Nc1c(Br)cc(Br)cc1CN[C@H]1CC[C@H](O)CC1			plasma	concentration not given, total, literature data		Cmax	45 nM
CS(=O)(=O)CCNCc1ccc(-c2ccc3ncnc(Nc4ccc(OCc5cccc(F)c5)c(Cl)c4)c3c2)o1			plasma	concentration not given, total, steady state		Cmax	4200 nM
O=C(O)CCc1nc(-c2ccccc2)c(-c2ccccc2)o1			plasma	concentration not given		Cmax	501000 nM
CC[C@H](C)C(=O)O[C@H]1C[C@H](O)C=C2C=C[C@H](C)[C@H](CC[C@@H](O)C[C@@H](O)CC(=O)O)[C@H]21			plasma	concentration not given, total concentration		Cmax	120 nM
Nc1cc(C(F)(F)F)c(-c2nc(N3CCOCC3)nc(N3CCOCC3)n2)cn1	PRPF4B (Homo sapiens, UniProt Q13523)	enzyme activity		10 µM	reference: untreated	remaining activity	79%
NC(=O)[C@@H]1CC[C@@H]2CN1C(=O)N2OS(=O)(=O)O			healthy volunteers, epithelial lining fluid	dose not given, geometric mean		Cmax	5100 ng/mL
CCn1c(=O)c(-c2cc(NC(=O)Nc3ccccc3)c(F)cc2Br)cc2cnc(NC)cc21			patients, plasma	150 mg once daily, median		Cmax	833 ng/mL

Some of these lines once more:
Structure (SMILES)	target or system	assay	test system	conditions	how to read	measurement	result
COc1cc(N2CCC(N3CCN(C)CC3)CC2)ccc1Nc1ncc(Cl)c(Nc2ccccc2P(C)(C)=O)n1			healthy subjects	90 mg, single dose alone, itraconazole study		Cmax	331 ng/mL
O=C(c1ccccc1)c1ccc2n1CCC2C(=O)O (stereo not drawn)			plasma	concentration not given		Cmax	9500 nM
